Experimental data pooled from the literature.
Protocols differ between the studies behind these lines.
Organism: Trypanosoma brucei rhodesiense

The cured mice of `N=C(N)c1ccc(-c2ccc(-c3ccc(C(=N)N)o3)o2)cn1` is reported as 0% (STIB900, mice, acute infection model; intraperitoneal, 5 mg/kg for 4 days, parasite-free at 60 days).
For `O=[N+]([O-])c1ncn(CCCCN2CCN(Cc3ccc(C(F)(F)F)cc3)CC2)n1`, the IC50 was 0.5 to 6 µM (growth; STIB900; bloodstream trypomastigotes).
`N=C(N)c1ccc(-c2ccc(-c3ccc(C(=N)N)o3)o2)cc1` has a cured mice of 50% (STIB900, mouse acute infection model; intraperitoneal, 20 mg/kg for 4 days, parasite-free survival 60 days).
`Cc1ccc(Cn2cc(/C=C3\SC(=S)NC3=O)c3cc([N+](=O)[O-])ccc32)cc1` has an IC50 of over 70 µM (trypomastigotes, IL1501).
`CC(O)(Cn1cnc([N+](=O)[O-])n1)c1ccc(-n2ccnc2)cc1` (stereo not drawn) gave an IC50 of 0.5 to 6 µM (parasite growth; STIB900 trypomastigotes).
For `O=[N+]([O-])c1ncn(CCCN2CCN(c3ccncc3)CC2)n1`, the IC50 was 0.5 to 6 µM (growth; STIB900 bloodstream trypomastigotes).
With `O=C1CSC(=S)N1/N=C/c1cn(Cc2ccccc2)c2ccc([N+](=O)[O-])cc12` the IC50 was over 60 µM (trypomastigotes, IL1501).
The cured mice of `N=C(N)c1ccc(-c2ccc(-c3ccc(C(=N)N)s3)s2)cn1` is reported as 0% (STIB900, mice, acute infection model; intraperitoneal, 5 mg/kg for 4 days, parasite-free at 60 days).
`Cc1ccc(Cn2cc(/C=N/N3C(=O)CSC3=S)c3cc([N+](=O)[O-])ccc32)cc1` gave an IC50 of over 58 µM (trypomastigotes, IL1501).
Under “mean survival time”, `N=C(N)Nc1ccc(-c2ccc(-c3ccc(NC(=N)N)cn3)cc2)nc1` is recorded as 20.2 days (STIB900, mice; intraperitoneal, 20 mg/kg daily for 4 days).
The IC50 of `C#CCn1cc(C=O)c2cc([N+](=O)[O-])ccc21` is reported as over 110 µM (trypomastigotes, IL1501).
With `N=C(N)c1ccc(C#Cc2ccc(-c3ccc(C(=N)N)o3)o2)cc1` the cured mice was 0% (STIB900, mice, acute infection model; intraperitoneal, 5 mg/kg for 4 days, parasite-free at 60 days).
